Measured values of several laboratories.
Compare with care: the assays were run in different laboratories. Numbers after ± are the reported error.
Mitogen-activated protein kinase 14: Mitogen-activated protein kinase 14 (Rattus norvegicus, UniProt P70618)
Chain of UniProt P70618 (whole entry, looked up): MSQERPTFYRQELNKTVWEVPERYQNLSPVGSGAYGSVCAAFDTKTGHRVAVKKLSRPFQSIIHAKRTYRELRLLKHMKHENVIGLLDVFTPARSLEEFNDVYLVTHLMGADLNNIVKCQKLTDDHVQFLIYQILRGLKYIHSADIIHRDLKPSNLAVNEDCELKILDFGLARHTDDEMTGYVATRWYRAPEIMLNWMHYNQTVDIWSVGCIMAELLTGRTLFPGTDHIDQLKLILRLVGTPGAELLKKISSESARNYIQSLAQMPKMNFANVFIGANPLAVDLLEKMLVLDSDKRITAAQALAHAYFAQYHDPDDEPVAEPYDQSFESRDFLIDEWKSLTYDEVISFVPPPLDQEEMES
CTSL: Procathepsin L (CTSL, Homo sapiens, UniProt P07711)
Chain of UniProt P07711 (whole entry, looked up): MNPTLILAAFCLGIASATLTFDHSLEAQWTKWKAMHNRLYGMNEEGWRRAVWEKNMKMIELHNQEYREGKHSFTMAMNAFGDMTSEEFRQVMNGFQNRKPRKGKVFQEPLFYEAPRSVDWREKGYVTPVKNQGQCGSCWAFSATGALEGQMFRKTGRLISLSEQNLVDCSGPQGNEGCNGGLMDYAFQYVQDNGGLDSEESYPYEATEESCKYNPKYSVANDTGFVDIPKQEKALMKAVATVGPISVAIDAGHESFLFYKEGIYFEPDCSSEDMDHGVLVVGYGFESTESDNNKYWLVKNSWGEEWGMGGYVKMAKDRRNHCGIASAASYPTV
CA2: Carbonic anhydrase 2 (CA2, Homo sapiens, UniProt P00918)
Chain of UniProt P81908 (whole entry, looked up): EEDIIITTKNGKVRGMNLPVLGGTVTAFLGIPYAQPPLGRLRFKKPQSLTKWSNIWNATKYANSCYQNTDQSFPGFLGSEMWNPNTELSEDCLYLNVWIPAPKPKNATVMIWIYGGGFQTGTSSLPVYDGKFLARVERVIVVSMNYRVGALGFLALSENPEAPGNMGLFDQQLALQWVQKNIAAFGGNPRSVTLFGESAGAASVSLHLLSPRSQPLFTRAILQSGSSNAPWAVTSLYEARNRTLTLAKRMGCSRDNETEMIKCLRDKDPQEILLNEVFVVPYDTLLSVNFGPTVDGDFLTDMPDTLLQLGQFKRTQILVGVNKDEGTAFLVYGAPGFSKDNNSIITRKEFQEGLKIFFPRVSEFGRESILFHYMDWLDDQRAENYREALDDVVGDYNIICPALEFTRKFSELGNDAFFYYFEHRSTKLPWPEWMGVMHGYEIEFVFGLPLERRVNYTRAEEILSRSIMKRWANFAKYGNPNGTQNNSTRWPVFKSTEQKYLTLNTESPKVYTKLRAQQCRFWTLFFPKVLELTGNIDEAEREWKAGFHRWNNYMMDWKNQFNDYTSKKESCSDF
Chain of UniProt P14618 (whole entry, looked up): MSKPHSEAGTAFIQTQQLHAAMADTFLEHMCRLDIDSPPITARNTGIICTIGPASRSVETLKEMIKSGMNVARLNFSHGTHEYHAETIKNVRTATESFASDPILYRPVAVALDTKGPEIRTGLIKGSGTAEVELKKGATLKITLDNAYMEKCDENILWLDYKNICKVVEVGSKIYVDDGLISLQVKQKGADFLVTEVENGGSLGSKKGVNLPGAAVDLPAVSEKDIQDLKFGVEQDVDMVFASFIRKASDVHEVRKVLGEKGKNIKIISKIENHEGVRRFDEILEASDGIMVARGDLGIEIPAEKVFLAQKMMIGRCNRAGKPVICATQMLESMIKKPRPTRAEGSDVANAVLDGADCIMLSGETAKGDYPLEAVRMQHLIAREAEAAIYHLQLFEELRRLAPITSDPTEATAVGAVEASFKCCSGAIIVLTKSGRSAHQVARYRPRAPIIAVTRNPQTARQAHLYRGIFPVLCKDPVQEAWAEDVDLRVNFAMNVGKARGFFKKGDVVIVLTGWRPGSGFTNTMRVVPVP
Chain of UniProt P0A7E5 (whole entry, looked up): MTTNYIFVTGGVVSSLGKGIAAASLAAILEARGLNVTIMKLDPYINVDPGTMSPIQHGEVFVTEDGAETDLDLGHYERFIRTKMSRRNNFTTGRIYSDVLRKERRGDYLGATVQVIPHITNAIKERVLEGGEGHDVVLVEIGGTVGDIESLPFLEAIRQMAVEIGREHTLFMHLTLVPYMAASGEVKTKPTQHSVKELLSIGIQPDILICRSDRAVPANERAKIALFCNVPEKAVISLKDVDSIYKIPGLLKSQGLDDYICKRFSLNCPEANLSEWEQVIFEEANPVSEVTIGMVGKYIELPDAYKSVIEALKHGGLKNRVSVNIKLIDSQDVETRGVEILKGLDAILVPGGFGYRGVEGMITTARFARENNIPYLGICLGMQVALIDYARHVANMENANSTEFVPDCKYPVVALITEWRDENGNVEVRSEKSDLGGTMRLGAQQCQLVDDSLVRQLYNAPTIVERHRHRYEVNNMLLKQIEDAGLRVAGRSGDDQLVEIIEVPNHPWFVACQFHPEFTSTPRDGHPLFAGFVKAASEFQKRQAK
Chain of UniProt P09958 (whole entry, looked up): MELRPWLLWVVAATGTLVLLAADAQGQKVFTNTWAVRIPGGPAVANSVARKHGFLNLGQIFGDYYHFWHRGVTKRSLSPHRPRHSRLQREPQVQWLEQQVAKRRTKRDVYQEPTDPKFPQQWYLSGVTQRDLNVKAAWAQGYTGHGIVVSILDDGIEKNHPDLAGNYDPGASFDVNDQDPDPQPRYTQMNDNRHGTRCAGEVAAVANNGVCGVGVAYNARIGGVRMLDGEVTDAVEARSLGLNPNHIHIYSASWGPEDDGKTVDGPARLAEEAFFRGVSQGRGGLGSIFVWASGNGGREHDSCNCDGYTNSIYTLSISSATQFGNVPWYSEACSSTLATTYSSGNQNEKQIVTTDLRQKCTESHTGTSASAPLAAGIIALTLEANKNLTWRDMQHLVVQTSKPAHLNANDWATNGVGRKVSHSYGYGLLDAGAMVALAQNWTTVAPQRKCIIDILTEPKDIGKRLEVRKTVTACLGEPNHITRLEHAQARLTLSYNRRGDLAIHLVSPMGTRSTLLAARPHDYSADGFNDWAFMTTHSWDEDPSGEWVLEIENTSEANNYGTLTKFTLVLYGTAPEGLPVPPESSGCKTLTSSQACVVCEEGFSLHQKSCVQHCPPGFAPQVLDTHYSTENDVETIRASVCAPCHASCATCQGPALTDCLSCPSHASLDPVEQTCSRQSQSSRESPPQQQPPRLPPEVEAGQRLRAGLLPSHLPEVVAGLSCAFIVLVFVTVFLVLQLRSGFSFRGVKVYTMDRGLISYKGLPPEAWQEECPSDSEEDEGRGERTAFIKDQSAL
Chain of UniProt Q12809 (whole entry, looked up): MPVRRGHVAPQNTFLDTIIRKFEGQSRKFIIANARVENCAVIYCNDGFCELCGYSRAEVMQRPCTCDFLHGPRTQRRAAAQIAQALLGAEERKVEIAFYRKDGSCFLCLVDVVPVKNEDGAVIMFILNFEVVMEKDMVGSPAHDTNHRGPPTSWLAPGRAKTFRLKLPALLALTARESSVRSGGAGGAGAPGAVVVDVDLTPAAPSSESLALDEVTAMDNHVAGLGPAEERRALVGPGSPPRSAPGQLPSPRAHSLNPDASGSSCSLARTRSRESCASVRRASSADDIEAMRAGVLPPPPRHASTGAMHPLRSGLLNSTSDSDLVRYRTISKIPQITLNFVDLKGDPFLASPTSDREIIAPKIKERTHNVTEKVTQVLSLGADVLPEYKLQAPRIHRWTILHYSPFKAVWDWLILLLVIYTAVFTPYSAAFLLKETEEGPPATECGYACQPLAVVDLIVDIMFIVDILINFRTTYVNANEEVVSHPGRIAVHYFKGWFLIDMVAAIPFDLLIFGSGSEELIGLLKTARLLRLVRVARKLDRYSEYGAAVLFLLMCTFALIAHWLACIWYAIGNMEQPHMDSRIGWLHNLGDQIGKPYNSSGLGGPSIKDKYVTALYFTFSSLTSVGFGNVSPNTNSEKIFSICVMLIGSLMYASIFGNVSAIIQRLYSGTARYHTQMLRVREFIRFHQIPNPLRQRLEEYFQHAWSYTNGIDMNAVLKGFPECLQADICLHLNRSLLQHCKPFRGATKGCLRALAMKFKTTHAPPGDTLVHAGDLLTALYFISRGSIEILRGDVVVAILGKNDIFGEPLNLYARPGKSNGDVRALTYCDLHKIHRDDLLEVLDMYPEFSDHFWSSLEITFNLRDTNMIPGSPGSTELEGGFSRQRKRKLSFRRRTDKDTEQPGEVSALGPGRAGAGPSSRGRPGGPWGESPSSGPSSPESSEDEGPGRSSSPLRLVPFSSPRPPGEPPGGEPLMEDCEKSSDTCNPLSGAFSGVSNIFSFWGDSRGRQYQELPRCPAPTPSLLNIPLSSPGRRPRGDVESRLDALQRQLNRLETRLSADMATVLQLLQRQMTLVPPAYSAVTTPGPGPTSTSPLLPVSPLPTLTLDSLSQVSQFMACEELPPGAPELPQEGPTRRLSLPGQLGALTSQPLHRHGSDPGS
Chain of UniProt P25084 (whole entry, looked up): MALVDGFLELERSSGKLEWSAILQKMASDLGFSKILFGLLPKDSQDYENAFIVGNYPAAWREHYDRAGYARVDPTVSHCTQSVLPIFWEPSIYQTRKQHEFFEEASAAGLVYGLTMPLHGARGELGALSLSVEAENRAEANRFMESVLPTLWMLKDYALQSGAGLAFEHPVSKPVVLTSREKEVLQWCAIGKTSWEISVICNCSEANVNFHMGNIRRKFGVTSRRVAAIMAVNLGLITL
Chain of UniProt P28335 (whole entry, looked up): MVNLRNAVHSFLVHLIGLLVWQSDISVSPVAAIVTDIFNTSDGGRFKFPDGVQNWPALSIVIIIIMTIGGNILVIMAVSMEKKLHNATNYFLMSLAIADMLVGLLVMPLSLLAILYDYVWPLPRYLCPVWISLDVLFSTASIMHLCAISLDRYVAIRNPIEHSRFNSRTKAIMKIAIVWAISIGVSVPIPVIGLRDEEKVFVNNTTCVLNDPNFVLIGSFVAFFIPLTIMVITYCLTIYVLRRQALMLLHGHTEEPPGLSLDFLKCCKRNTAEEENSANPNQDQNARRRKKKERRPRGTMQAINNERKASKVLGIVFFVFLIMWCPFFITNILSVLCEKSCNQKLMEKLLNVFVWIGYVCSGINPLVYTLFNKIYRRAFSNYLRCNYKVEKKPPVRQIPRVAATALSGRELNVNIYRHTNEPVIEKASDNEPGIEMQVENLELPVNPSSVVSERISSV

`CCc1nn(C)c2nc(-c3ccc(C(=O)O)cc3)nc(NCc3ccccc3)c12` has an IC50 of 0.07 µM (PDE6A/PDE6B (Bos taurus, UniProt P11541+P23439); inhibitor; bovine retina).
The IC50 of `CC[C@H](C)[C@H](NC(=O)[C@H](Cc1ccccc1)NC(=O)[C@@H](NC(=O)[C@H](CCCNC(=N)N)NC(=O)[C@H](CC(C)C)NC(=O)[C@H](CCCCN)NC(=O)[C@H](CCCNC(=N)N)NC(=O)[C@H](CCCCN)NC(=O)[C@H](CCC(N)=O)NC(=O)[C@H](CCCCN)NC(=O)[C@@H](NC(=O)[C@@H]1CCCN1C(=O)[C@H](C)NC(=O)[C@@H](N)Cc1ccc(O)cc1)[C@@H](C)CC)[C@@H](C)CC)C(=O)N[C@@H](CO)C(=O)N[C@@H](CC(N)=O)C(=O)O` is reported as 2.43 µM (Mitogen-activated protein kinase 14; enzyme activity, inhibitor, fluorescence; pH 7.4).
`O=C(CCc1ccc(Br)cc1)N[C@H]1CCOC1=O` has an IC50 of 7.6 µM (lasR (Pseudomonas aeruginosa, UniProt P25084); reporter gene, antagonist; PAO-JP2; with: OdDHL 100 nM).
`O=C(O)C(/C=C/c1ccc(Cl)cc1)=N\Nc1nc(-c2ccc([N+](=O)[O-])cc2)cs1` has an IC50 of 2.12 µM (Cholinesterase (BCHE, Equus caballus, UniProt P81908); enzyme activity, inhibitor).
With `CSCC[C@H](NC(=O)[C@@H](NC(=O)[C@H](Cc1c[nH]cn1)NC(=O)CNC(=O)[C@H](Cc1c[nH]cn1)NC(=O)[C@@H]1CCCN1C(=O)[C@H](C)N)C(C)C)C(=O)N[C@H](C(=O)N[C@@H](CCC(=O)O)C(=O)N[C@@H](CC(C)C)C(=O)O)C(C)C` the IC50 was over 70 µM (HLA class I histocompatibility antigen, B alpha chain, allele B*18:01 (Homo sapiens, UniProt P01889); peptide-MHC binding, radioligand competition binding).
The IC50 of `CCC1c2ccsc2CCN1C(=O)c1cn(C2CCNCC2)nn1` (racemic) is reported as over 100 µM (CTSL; enzyme activity, inhibitor, FRET).
The IC50 of `CC[C@H](C)[C@H](NC(=O)[C@H](CC(C)C)NC(=O)[C@@H]1CCCN1C(=O)[C@H](CCCNC(=N)N)NC(=O)[C@@H]1CCCN1C(=O)[C@H](CCCCN)NC(=O)[C@H](Cc1c[nH]cn1)NC(=O)[C@H](CCCNC(=N)N)NC(=O)[C@H](Cc1ccccc1)NC(=O)[C@H](CCCCN)NC(=O)[C@H](CCCCN)NC(=O)[C@H](C)NC(=O)[C@@H](N)Cc1ccc(O)cc1)C(=O)N[C@@H](CC(C)C)C(=O)N1CCC[C@H]1C(=O)N1CCC[C@H]1C(=O)O` is reported as 5.01 µM (Mitogen-activated protein kinase 14; enzyme activity, inhibitor, fluorescence; pH 7.4).
`O=C(c1cccc(-n2cccc2)c1)N1CCCN(S(=O)(=O)c2ccc(F)cc2)CC1` gave an IC50 of 66.9 µM (CTSL; enzyme activity, inhibitor, FRET).
The IC50 of `CC[C@H](C)[C@H](NC(=O)[C@H](C)NC(=O)[C@H](CCC(=O)O)NC(=O)[C@H](CC(C)C)NC(=O)[C@H](CO)NC(=O)[C@H](CCCNC(=N)N)NC(=O)[C@H](CCCNC(=N)N)NC(=O)[C@H](CC(C)C)NC(=O)[C@H](CC(C)C)NC(=O)[C@@H](NC(=O)[C@H](C)NC(=O)[C@@H](N)Cc1ccc(O)cc1)[C@@H](C)CC)C(=O)N[C@@H](CCC(=O)O)C(=O)N[C@@H](CC(C)C)C(=O)NCC(=O)N[C@@H](CC(C)C)C(=O)O` is reported as 71.1 µM (Mitogen-activated protein kinase 14; enzyme activity, inhibitor, fluorescence; pH 7.4).
The IC50 of `CC1(C)CC=C(c2ccccc2)c2cc(/C=C/c3ccc(C(=O)O)cc3)ccc21` is reported as 0.0127 µM (RARG (Homo sapiens, UniProt P13631)).
`CC[C@H](C)[C@@H]1NC(=O)CNC(=O)[C@H](CC(=O)O)NC(=O)[C@H](CC(=O)O)NC(=O)[C@@H]2CSSC[C@@H]3NC(=O)[C@H](Cc4c[nH]cn4)NC(=O)[C@H](CCCNC(=N)N)NC(=O)[C@H](CCCNC(=N)N)NC(=O)[C@@H](NC(=O)[C@H](CO)NC(=O)[C@@H](N)Cc4c[nH]cn4)CSSC[C@H](NC(=O)[C@H](C)NC(=O)[C@H](Cc4c[nH]c5ccccc45)NC(=O)CNC(=O)[C@H](CSSC[C@@H](C(=O)N[C@@H](CCCCN)C(=O)N4CCC[C@H]4C(=O)N[C@@H](CC(C)C)C(=O)N[C@@H](CCCNC(=N)N)C(=O)N[C@H](C(=O)O)C(C)C)NC1=O)NC(=O)[C@H](CCCNC(=N)N)NC(=O)[C@H](CCCNC(=N)N)NC(=O)[C@H](CC(N)=O)NC(=O)[C@H](CCC(=O)O)NC(=O)[C@H](Cc1c[nH]cn1)NC3=O)C(=O)N[C@@H](Cc1ccc(O)cc1)C(=O)N2` has an IC50 of 2.9 µM (KCNA1 (Homo sapiens, UniProt Q09470); ion current, inhibitor; pH 7.2).
`N=C(N)SCc1ccc(B(O)O)cc1` gave an IC50 of over 10 µM (Furin (FURIN, Homo sapiens, UniProt P09958); enzyme activity, inhibitor; with: pERTKR-AMC 5 µM).
`COc1ccccc1C1SCC(=O)N1CCCN(C)C` (centres unmarked) has an IC50 of 3.9 µM (uncharacterized protein (Apis mellifera, UniProt A0A7M6W5G5); enzyme activity, inhibitor, Ellman; with: 1 mM acetylthiocholine).
With `Cc1ccc(N2CC3CC(C2)N3C)cc1C(=O)NC1(c2ccc3c4c(cccc24)C(=O)N3C)CC1` the IC50 was over 50 µM (Cytochrome P450 2D6 (CYP2D6, Homo sapiens, UniProt P10635); enzyme activity, inhibitor).
For `COC(=O)CNC(=O)[C@H](CC(C)C)NC(=O)[C@@H](Cc1ccc(O)cc1OC)NC(=O)[C@H](CO)NC(=O)[C@@H](NC(=O)[C@H](CC(C)C)NC(=O)[C@@H](Cc1ccc(O)cc1)NC(=O)[C@H](Cc1ccc(O)cc1)NC(=O)NC(=O)O)[C@@H](O)C(=O)O`, the IC50 was 90 µM (PTPN11 (Homo sapiens, UniProt Q06124); enzyme activity, inhibitor, fluorescence).
For `O=S(=O)(N/N=C/c1ccc(OS(=O)(=O)c2ccccc2)cc1)c1ccc(Cl)cc1`, the IC50 was 0.362 µM (CA2; enzyme activity, inhibitor, absorbance).
With `CCN1CCC[C@H]1CNC(=O)c1cc([N+](=O)[O-])c(N(C)C)cc1OC` the IC50 was 15 µM (uncharacterized protein (Apis mellifera, UniProt A0A7M6W5G5); enzyme activity, inhibitor, Ellman; pH 7.4, 30 °C, with: 1 mM acetylthiocholine).
For `C[C@@H]1COCCN1c1nc(NCc2cccnc2C(F)(F)F)c2cccnc2n1`, the IC50 was 31.8 µM (KCNH2 (Homo sapiens, UniProt Q12809); ion current, inhibitor).
`O=S(=O)(N/N=C/c1ccc(OS(=O)(=O)c2cc(Cl)ccc2Cl)cc1)c1ccc(Cl)cc1` gave an IC50 of 0.0425 µM (CA2; enzyme activity, inhibitor, absorbance).
`CC[C@H](C)[C@H](NC(=O)[C@H](Cc1ccc(O)cc1)NC(=O)[C@H](CC(C)C)NC(=O)[C@H](CCCNC(=N)N)NC(=O)[C@H](CCCCN)NC(=O)[C@@H](NC(=O)[C@H](CCCCN)NC(=O)[C@H](CCCCN)NC(=O)[C@H](CCCCN)NC(=O)[C@@H](NC(=O)[C@H](CCC(N)=O)NC(=O)[C@H](Cc1ccccc1)NC(=O)[C@H](C)NC(=O)[C@@H](N)Cc1ccc(O)cc1)[C@@H](C)CC)[C@@H](C)O)C(=O)N[C@@H](CC(N)=O)C(=O)N[C@@H](CCCCN)C(=O)O` has an IC50 of 34.3 µM (Mitogen-activated protein kinase 14; enzyme activity, inhibitor, fluorescence; pH 7.4).
The IC50 of `O=C(O)CCn1c(=O)oc2cc(Cl)c(Cl)cc21` is reported as over 25.1 µM (HTR2C (Homo sapiens, UniProt P28335); antagonist; median value).
The IC50 of `Cc1nc2c(=O)n(C)c(=O)nc-2n(C)n1` is reported as 2 µM (Cruzipain (Trypanosoma cruzi, UniProt P25779); enzyme activity, inhibitor).
The IC50 of `CC[C@H](C)[C@H](NC(=O)[C@H](CS)NC(=O)[C@H](CCCNC(=N)N)NC(=O)[C@H](Cc1ccccc1)NC(=O)[C@H](Cc1ccc(O)cc1)NC(=O)[C@@H]1CCCN1C(=O)[C@@H](NC(=O)[C@H](CS)NC(=O)[C@H](C)N)C(C)C)C(N)=O` is reported as over 1000 µM (Pyruvate kinase PKM (PKM, Homo sapiens, UniProt P14618); enzyme activity, inhibitor, fluorometric; 2 h, 37 °C, enzyme 500 nM).
`CNc1nc(N[C@@H](CCO)c2ccccc2Cl)nc(N2CCN(C(=O)CCl)C(C(=O)NCC3CCNC3=O)C2)n1` (some centres unmarked) has an IC50 of over 50 µM (CTSL; enzyme activity, inhibitor).
`CCCN(CCCC[C@H](NC(=O)[C@H](CCCN1CCOCC1)NC(=O)[C@@H](NC(=O)[C@H](Cc1ccccc1)NC(=O)c1ccc(C(C)(C)C)cc1)C1CCC1)C(=O)N[C@@H](CO)C(N)=O)C1CC2CCC1C2` (some centres unmarked) has an IC50 of 11 µM (Chromobox protein homolog 7 (Homo sapiens, UniProt O95931); ligand displacement, TR-FRET).
The IC50 of `CN(C)CCCN1C(=O)CSC1c1ccc(F)cc1` (centres unmarked) is reported as 233 µM (uncharacterized protein (Anopheles gambiae, UniProt Q7QFG0); enzyme activity, inhibitor, Ellman; with: 1 mM acetylthiocholine).
`Nc1ccn(C2OC(COP(=O)(O)OP(=O)(O)OP(=O)(O)O)C(O)C2(F)F)c(=O)n1` (centres unmarked) gave an IC50 of 11 ± 0.9 µM (pyrG (Escherichia coli, UniProt P0A7E5); glutamine-dependent CTP formation, inhibitor; with: 5 mM MgCl2).
`CC(C)C[C@H](NC(=O)[C@H](CC(=O)O)NC(=O)[C@H](CCCNC(=N)N)NC(=O)[C@@H]1CCCN1C(=O)[C@H](CCCCN)NC(=O)[C@H](CCCNC(=N)N)NC(=O)CNC(=O)[C@H](CCCCN)NC(=O)[C@H](C)NC(=O)[C@@H](N)Cc1ccc(O)cc1)C(=O)N[C@@H](CCC(=O)O)C(=O)N[C@@H](CC(C)C)C(=O)N1CCC[C@H]1C(=O)N[C@@H](CC(C)C)C(=O)N[C@@H](CO)C(=O)N1CCC[C@H]1C(=O)O` has an IC50 of 411 µM (Mitogen-activated protein kinase 14; enzyme activity, inhibitor, fluorescence; pH 7.4).
The IC50 of `CNC(=O)C[C@H](Cc1ccc(F)cc1)NC(=O)[C@@H](Cc1ccc(Cl)cc1Cl)NC(=O)[C@H](N)Cc1ccccc1C#N` is reported as over 10 µM (CTSL; enzyme activity, inhibitor).
`Cc1ccccc1COn1nnc2ccc(S(=O)(=O)N(C)C)cc21` gave an IC50 of over 100 µM (CTSL; enzyme activity, inhibitor, FRET).
The IC50 of `CC[C@H](C)[C@H](NC(=O)[C@H](CCCNC(=N)N)NC(=O)[C@H](C)NC(=O)[C@H](CS)NC(=O)[C@H](CCCNC(=N)N)NC(=O)[C@H](CO)NC(=O)CNC(=O)[C@H](C)NC(=O)[C@@H](N)Cc1ccc(O)cc1)C(=O)N[C@@H](Cc1ccccc1)C(=O)N[C@@H](CCCNC(=N)N)C(=O)N[C@@H](CC(C)C)C(=O)N[C@H](C(=O)N[C@@H](CC(C)C)C(=O)N[C@@H](CCC(N)=O)C(=O)N[C@@H](CCCCN)C(=O)O)C(C)C` is reported as 9.49 µM (Mitogen-activated protein kinase 14; enzyme activity, inhibitor, fluorescence; pH 7.4).
The IC50 of `CN(C)C(=O)c1cncc(-c2cnc3[nH]cc(-c4cc(OS(=O)(=O)F)ccc4C(F)(F)F)c3c2)c1` is reported as over 1 µM (ABL1 (Homo sapiens, UniProt P00519); kinase activity, inhibitor, HTRF; 1 h preincubation, with: ATP 20 µM).
